Literature values, collected from citations in different studies.
Protocols differ between the studies behind these lines. ± gives the spread as reported.

For Nc1nc(Cl)nc2c1ncn2[C@@H]1O[C@H](COP(=O)(O)OP(=O)(O)O)[C@@H](O)[C@@H]1F, the EC50 was 190 nM (Ribonucleoside-diphosphate reductase large subunit (Homo sapiens, UniProt P23921); oligomerization).
For CC[C@H](C)[C@H](NC(=O)[C@H](CCCCN)NC(=O)[C@H](Cc1c[nH]cn1)NC(=O)[C@@H](N)CCCNC(=N)N)C(=O)N[C@@H](CC(C)C)C(=O)N[C@@H](Cc1c[nH]cn1)C(=O)N[C@@H](CCCNC(=N)N)C(=O)N[C@@H](CC(C)C)C(=O)N[C@@H](CC(C)C)C(=O)N[C@@H](CCC(N)=O)C(=O)N[C@@H](CCC(=O)O)C(=O)NCC(=O)N[C@@H](CO)C(=O)O, the ΔH was -10 ± 0.4 kcal/mol (Nuclear receptor subfamily 1 group I member 3, with RXR (Mus musculus, UniProt O35627); binding, isothermal titration calorimetry; pH 7.2, 25°C).
With [Ca+2] the EC50 was 450 nM (cGMP-gated channel (rod); shift in cGMP K1/2, modulator; with: calmodulin).
For O=c1ccn([C@H]2[C@H](O)[C@H](O)[C@@]3(COP(=O)(O)OP(=O)(O)O)C[C@H]23)c(=O)[nH]1, the EC50 was greater than 10000 nM (P2Y purinoceptor 6 (P2RY6, Homo sapiens, UniProt Q15077); PLC stimulation, agonist; 1321N1 cells).
Nc1ncnc2c1nc(Br)n2[C@@H]1O[C@@H]2COP(=O)(O)O[C@H]2[C@H]1O: “Km or Ki” 23400 nM (PDE5; cyclic nucleotide hydrolysis, substrate or inhibitor, isothermal titration calorimetry).
C=C[C@@]1(C)CC(=O)[C@]2(O)[C@@]3(C)[C@@H](O)CCC(C)(C)[C@@H]3[C@H](O)[C@H](OC(C)=O)[C@@]2(C)O1 gave an EC50 of 10000 nM (adenylyl cyclase subunits; subunit interaction, stabilizer).
For CC(C)C[C@H](N)C(=O)O, the EC50 was 610000 nM (GLUD1 (Homo sapiens, UniProt P00367, S501P); enzyme activity, activator; mutant enzyme, reductive amination).
With CC(C)[C@H](NC(=O)CNC(=O)[C@H](CC(N)=O)NC(=O)[C@H](CCCNC(=N)N)NC(=O)[C@H](Cc1ccccc1)NC(=O)[C@@H](N)CO)C(N)=O the EC50 was 0.7 ± 0.2 nM (Neuropeptide S receptor (NPSR1, Homo sapiens, UniProt Q6W5P4, N107I); calcium mobilization, agonist; receptor variant).
CCn1nnc([C@H]2O[C@@H](n3cnc4c(NCc5cccc(I)c5)nc(Cl)nc43)[C@H](O)[C@@H]2O)n1 gave an EC50 of 9.04 nM (Adenosine receptor A2a (ADORA2A, Homo sapiens, UniProt P29274); adenylyl cyclase activation, agonist).
For CC1(C)Cc2c(sc(NC(=O)c3ccn[nH]3)c2C(N)=O)C(C)(C)O1, the EC50 was 1700 nM (Cystic fibrosis transmembrane conductance regulator (CFTR, Homo sapiens, UniProt P13569); potentiator; open probability reduced 20-fold to 0.02).
For CCCCCCC=O, the EC50 was 12000 ± 3000 nM (Olfactory receptor 226 (Olr226, Rattus norvegicus, UniProt P23270); agonist; rat olfactory neurons expressing OR-I7).
The EC50 of C[C@@H](c1ccc2nccn2c1)n1nnc2ncc(-c3cnn(C)c3)nc21 is reported as 1.1 nM (Hepatocyte growth factor receptor, phosphorylated (MET, Homo sapiens, UniProt P08581); MET phosphorylation; mouse, plasma).
With CC1(C)C=Cc2c(ccc3c2OC[C@@H](c2ccc(O)cc2O)C3)O1 the EC50 was 700 nM (GABA-A receptor, native; modulator; dorsal raphe neurons; high-efficacy site).
The EC50 of Cn1cc(CNCC2CCN(c3ncc(C(=O)NO)cn3)CC2)c2ccccc21 is reported as 10 nM (Polyamine deacetylase HDAC10 (HDAC10, Homo sapiens, UniProt Q969S8); binding, TR-FRET).
Nc1ncnc2c1ncn2[C@@H]1O[C@H](COP(=O)(O)OP(=O)(O)O)[C@@H](O)[C@H]1O gave an EC50 of 660 nM (P2Y purinoceptor 1 (P2RY1, Homo sapiens, UniProt P47900); phospholipase C activation, agonist; 1321N1).
Cc1ccc(Sc2cccc3[nH]c4nc(N)nc(N)c4c23)cc1 has an IC50 of 56300 ± 7100 nM (Vascular endothelial growth factor receptor 2 (KDR, Homo sapiens, UniProt P35968); kinase activity, inhibitor).
The Vz/F of O=C1c2cccc3c2[C@H](CCC3)CN1[C@@H]1CN2CCC1CC2 is reported as 842 L (healthy volunteers, plasma; oral, dose not given, netupitant-palonosetron combination, with: oral contraceptives).
For Nc1nc2c(nc(Br)n2[C@@H]2O[C@@H]3COP(=O)(O)O[C@H]3[C@H]2O)c(=O)[nH]1, “Km or Ki” read 33000 nM (PDE6; cyclic nucleotide hydrolysis, substrate or inhibitor, isothermal titration calorimetry).

Some of these lines once more:
For O=c1ccn([C@H]2[C@H](O)[C@H](O)[C@@]3(COP(=O)(O)OP(=O)(O)O)C[C@H]23)c(=O)[nH]1, the EC50 was greater than 10000 nM (P2Y purinoceptor 6 (P2RY6, Homo sapiens, UniProt Q15077); PLC stimulation, agonist; 1321N1 cells).
The EC50 of Cn1cc(CNCC2CCN(c3ncc(C(=O)NO)cn3)CC2)c2ccccc21 is reported as 10 nM (Polyamine deacetylase HDAC10 (HDAC10, Homo sapiens, UniProt Q969S8); binding, TR-FRET).
